Experimental data collected from several papers.
± marks the error that the study gave.

SMILES	test system	conditions	tissue uptake [%ID/g]
CCCC[C@H](NC(=O)COCCOCCNC(=O)c1ccc(NN)nc1)C(=O)N[C@H]1CC(=O)NCCCC[C@@H](C(N)=O)NC(=O)[C@H](Cc2c[nH]c3ccccc23)NC(=O)[C@H](CCCNC(=N)N)NC(=O)[C@@H](Cc2ccccc2)NC(=O)[C@H](Cc2c[nH]cn2)NC1=O [technetium-99m labelled]	C57 mouse, female, B16/F1 melanoma, tumor	intravenous, 0.037 MBq, 2 h	14.3 ± 2.82
N=C(N)NCCC[C@@H]1NC(=O)[C@H](CCCCNC(=O)CNC(=O)CNC(=O)CNC(=O)CC[C@H](NC(=O)CCOCCOCCOCCOCCNC(=O)CC[C@H](NC(=O)CN2CCN(CC(=O)O)CCN(CC(=O)O)CCN(CC(=O)O)CC2)C(=O)NCCOCCOCCOCCOCCC(=O)N[C@@H](CCC(=O)NCC(=O)NCC(=O)NCC(=O)NCCCC[C@@H]2NC(=O)[C@@H](Cc3ccccc3)NC(=O)[C@H](CC(=O)O)NC(=O)CNC(=O)[C@H](CCCNC(=N)N)NC2=O)C(=O)NCC(=O)NCC(=O)NCC(=O)NCCCC[C@@H]2NC(=O)[C@@H](Cc3ccccc3)NC(=O)[C@H](CC(=O)O)NC(=O)CNC(=O)[C@H](CCCNC(=N)N)NC2=O)C(=O)NCC(=O)NCC(=O)NCC(=O)NCCCC[C@@H]2NC(=O)[C@@H](Cc3ccccc3)NC(=O)[C@H](CC(=O)O)NC(=O)CNC(=O)[C@H](CCCNC(=N)N)NC2=O)NC(=O)[C@@H](Cc2ccccc2)NC(=O)[C@H](CC(=O)O)NC(=O)CNC1=O [indium-111 labelled]	female athymic nude mice, blood	intravenous, 3 µCi, 4 h, U-87 MG glioma xenograft	0.04
N=C(N)NCCC[C@@H]1NC(=O)[C@H](CC(=O)NC23CNCCNCC(N)(CNCCNC2)CNCCNC3)NC(=O)[C@@H](Cc2ccccc2)NC(=O)[C@H](CC(=O)O)NC(=O)CNC1=O [copper-64 labelled]	Nu/Nu mouse, male, tumour-bearing, liver	intravenous, 10 µCi, 4 h	2.17 ± 0.64
CCCC[C@H](NC(=O)CCCCCCCNC(=O)c1ccc(NN)nc1)C(=O)N[C@H]1CC(=O)NCCCC[C@@H](C(N)=O)NC(=O)[C@H](Cc2c[nH]c3ccccc23)NC(=O)[C@H](CCCNC(=N)N)NC(=O)[C@@H](Cc2ccccc2)NC(=O)[C@H](Cc2c[nH]cn2)NC1=O [technetium-99m labelled]	C57 mouse, B16/F1 melanoma, skin	2 h, together with: NDP-MSH 10 µg (6.07 nmol) co-injected	0.45 ± 0.06
CCCC[C@H](NC(=O)CNC(=O)CNC(=O)c1ccc(NN)nc1)C(=O)N[C@H]1CC(=O)NCCCC[C@@H](C(N)=O)NC(=O)[C@H](Cc2c[nH]c3ccccc23)NC(=O)[C@H](CCCNC(=N)N)NC(=O)[C@@H](Cc2ccccc2)NC(=O)[C@H](Cc2c[nH]cn2)NC1=O [technetium-99m labelled]	C57 mouse, B16/F1 melanoma-bearing, kidneys	intravenous, 24 h	1.28 ± 0.28
N=C(N)NCCC[C@@H]1NC(=O)[C@H](CCCCNC(=O)CC[C@H](NC(=O)CCOCCOCCOCCOCCNC(=O)CC[C@H](NC(=O)CN2CCN(CC(=O)O)CCN(CC(=O)O)CCN(CC(=O)O)CC2)C(=O)NCCOCCOCCOCCOCCC(=O)N[C@@H](CCC(=O)NCCCC[C@@H]2NC(=O)[C@@H](Cc3ccccc3)NC(=O)[C@H](CC(=O)O)NC(=O)CNC(=O)[C@H](CCCNC(=N)N)NC2=O)C(=O)NCCCC[C@@H]2NC(=O)[C@@H](Cc3ccccc3)NC(=O)[C@H](CC(=O)O)NC(=O)CNC(=O)[C@H](CCCNC(=N)N)NC2=O)C(=O)NCCCC[C@@H]2NC(=O)[C@@H](Cc3ccccc3)NC(=O)[C@H](CC(=O)O)NC(=O)CNC(=O)[C@H](CCCNC(=N)N)NC2=O)NC(=O)[C@@H](Cc2ccccc2)NC(=O)[C@H](CC(=O)O)NC(=O)CNC1=O [indium-111 labelled]	female athymic nude mice, spleen	intravenous, 3 µCi, 0.5 h, U-87 MG glioma xenograft	2.36 ± 0.96
CSCC[C@H](NC(=O)[C@H](CC(C)C)NC(=O)[C@H](Cc1c[nH]cn1)NC(=O)CNC(=O)[C@@H](NC(=O)[C@H](C)NC(=O)[C@H](Cc1c[nH]c2ccccc12)NC(=O)[C@H](CCC(N)=O)NC(=O)CCCCCNC(=O)CNC(=O)CNC(=O)CNC(=O)CSC(C)=O)C(C)C)C(N)=O [technetium-99m labelled]	Swiss mouse, pancreas	intravenous, 18.5 MBq, 90 min	1.67 ± 0.33
N=C(N)NCCC[C@@H]1NC(=O)[C@H](CCCCNC(=O)CCOCCOCCOCCOCCNC(=O)CN2CCN(CC(=O)O)CCN(CC(=O)O)CCN(CC(=O)O)CC2)NC(=O)[C@@H](Cc2ccccc2)NC(=O)[C@H](CC(=O)O)NC(=O)CNC1=O [indium-111 labelled]	female athymic nude mice, spleen	intravenous, 3 µCi, 0.5 h, U-87 MG glioma xenograft	2.91 ± 0.51
N=C(N)NCCC[C@@H]1NC(=O)[C@H](CCCCNC(=O)CNC(=O)CNC(=O)CNC(=O)CC[C@H](NC(=O)c2ccc(NN=Cc3ccccc3S(=O)(=O)O)nc2)C(=O)NCC(=O)NCC(=O)NCC(=O)NCCCC[C@@H]2NC(=O)[C@@H](Cc3ccccc3)NC(=O)[C@H](CC(=O)O)NC(=O)CNC(=O)[C@H](CCCNC(=N)N)NC2=O)NC(=O)[C@@H](Cc2ccccc2)NC(=O)[C@H](CC(=O)O)NC(=O)CNC1=O [technetium-99m labelled]	athymic nu/nu mouse, female, MDA-MB-435 xenograft, tumour	intravenous, 2 µCi, 60 min	7.86 ± 2.23
CC(C)C[C@H](NC(=O)[C@H](Cc1ccc(O)cc1)NC(=O)[C@@H](CCCNC(=N)N)NC(=O)[C@@H](CO)NC(=O)[C@H](Cc1ccccc1)NC(=O)[C@H](CC1CCCCC1)NC(=O)[C@H](CC(=O)O)NC(=O)CCC(C(=O)O)N1CCCN2CCN(CCCN(CC(=O)O)CC2)CC1)C(=O)N[C@@H](Cc1c[nH]c2ccccc12)C(=O)N[C@@H](CO)C(=O)O (stereo partly drawn) [copper-64 labelled]	female NMRI nude mice, blood	1 h p.i.	2 ± 0.3
N=C(N)NCCC[C@@H]1NC(=O)[C@H](CCCCNC(=O)CC[C@H](NC(=O)CCOCCOCCOCCOCCNC(=O)CN2CCN(CC(=O)O)CCN(CC(=O)O)CCN(CC(=O)O)CC2)C(=O)NCCCC[C@@H]2NC(=O)[C@@H](Cc3ccccc3)NC(=O)[C@H](CC(=O)O)NC(=O)CNC(=O)[C@H](CCCNC(=N)N)NC2=O)NC(=O)[C@@H](Cc2ccccc2)NC(=O)[C@H](CC(=O)O)NC(=O)CNC1=O [indium-111 labelled]	female athymic nude mice, intestine	intravenous, 3 µCi, 24 h, U-87 MG glioma xenograft	2.28 ± 0.78
CSCC[C@H](NC(=O)[C@H](CC(C)C)NC(=O)[C@H](Cc1c[nH]cn1)NC(=O)CNC(=O)[C@@H](NC(=O)[C@H](C)NC(=O)[C@H](Cc1c[nH]c2ccccc12)NC(=O)[C@H](CCC(N)=O)NC(=O)CNC(=O)[C@H](CO)NC(=O)CNC(=O)CCCCCCCNC(=O)CCC(=O)Nc1ccc(CNC23CNCCNCC(N)(CNCCNC2)CNCCNC3)cc1)C(C)C)C(N)=O [copper-64 labelled]	female SCID mice, PC-3 xenograft, spleen	intravenous, 0.6 MBq, 4 h	1.07 ± 0.066

Some of these lines once more:
SMILES	test system	conditions	tissue uptake [%ID/g]
CC(C)C[C@H](NC(=O)[C@H](Cc1ccc(O)cc1)NC(=O)[C@@H](CCCNC(=N)N)NC(=O)[C@@H](CO)NC(=O)[C@H](Cc1ccccc1)NC(=O)[C@H](CC1CCCCC1)NC(=O)[C@H](CC(=O)O)NC(=O)CCC(C(=O)O)N1CCCN2CCN(CCCN(CC(=O)O)CC2)CC1)C(=O)N[C@@H](Cc1c[nH]c2ccccc12)C(=O)N[C@@H](CO)C(=O)O (stereo partly drawn) [copper-64 labelled]	female NMRI nude mice, blood	1 h p.i.	2 ± 0.3
N=C(N)NCCC[C@@H]1NC(=O)[C@H](CCCCNC(=O)CCOCCOCCOCCOCCNC(=O)CN2CCN(CC(=O)O)CCN(CC(=O)O)CCN(CC(=O)O)CC2)NC(=O)[C@@H](Cc2ccccc2)NC(=O)[C@H](CC(=O)O)NC(=O)CNC1=O [indium-111 labelled]	female athymic nude mice, spleen	intravenous, 3 µCi, 0.5 h, U-87 MG glioma xenograft	2.91 ± 0.51
